# Measured values pooled from the literature.
# Protocols differ between the studies behind these lines. ± gives the spread as reported. Square brackets hold non-standard residues; d marks the D form. * marks the point of attachment.
# HapB/HapC/HapE/HapX HapX 24-158: HapB/HapC/HapE/HapX HapX 24-158 (Aspergillus fumigatus)
# B1: acrA (Escherichia coli, UniProt P0AE06); N-terminal lipid at C25; chain CDDKQAQQGGQQMPAVGVVTVKTEPLQITTELPGRTSAYRIAEVRPQVSGIILKRNFKEGSDIEAGVSLYQIDPATYQATYDSAKGDLAKAQAAANIAQLTVNRYQKLLGTQYISKQEYDQALADAQQANAAVTAAKAAVETARINLAYTKVTSPISGRIGKSNVTEGALVQNGQATALATVQQLDPIYVDVTQSSNDFLRLKQELANGTLKQENGKAKVSLITSDGIKFPQDGTLEFSDVTVDQTTGSITLRAIFPNPDHTLLPGMFVRARLEEGLNPNAILVPQQGVTRTPRGDATVLVVGADDKVETRPIVASQAIGDKWLVTEGLKAGDRVVISGLQKVRPGVQVKAQEVTADNNQQAASGAQPEQSKS
# B2: PilA soluble N-terminally truncated (Haemophilus influenzae, UniProt Q5D8E3); chain TKKAAVSELLQASAPYKADVELCVYSTNETTNCTGGKNGIAADITTAKGYVKSVTTSNGAITVKGDGTLANMEYILQATGNAATGVTWTTTCKGTDASLFPANFCGSVTQ
# B3: HBZ 1-77 (HTLV-1, UniProt P0C746-2); chain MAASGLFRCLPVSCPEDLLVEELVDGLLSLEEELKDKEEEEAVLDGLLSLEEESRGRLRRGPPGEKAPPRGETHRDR
# B4: MC159L (Molluscum contagiosum virus, UniProt Q98325); chain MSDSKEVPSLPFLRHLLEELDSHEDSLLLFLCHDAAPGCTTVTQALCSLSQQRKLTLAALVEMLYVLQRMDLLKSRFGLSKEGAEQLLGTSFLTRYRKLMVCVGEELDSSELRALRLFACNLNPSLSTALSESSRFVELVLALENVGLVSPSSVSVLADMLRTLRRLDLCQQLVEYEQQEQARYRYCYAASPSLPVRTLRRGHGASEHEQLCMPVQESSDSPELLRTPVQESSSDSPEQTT
# UniProt P45481, sequence (whole entry, looked up): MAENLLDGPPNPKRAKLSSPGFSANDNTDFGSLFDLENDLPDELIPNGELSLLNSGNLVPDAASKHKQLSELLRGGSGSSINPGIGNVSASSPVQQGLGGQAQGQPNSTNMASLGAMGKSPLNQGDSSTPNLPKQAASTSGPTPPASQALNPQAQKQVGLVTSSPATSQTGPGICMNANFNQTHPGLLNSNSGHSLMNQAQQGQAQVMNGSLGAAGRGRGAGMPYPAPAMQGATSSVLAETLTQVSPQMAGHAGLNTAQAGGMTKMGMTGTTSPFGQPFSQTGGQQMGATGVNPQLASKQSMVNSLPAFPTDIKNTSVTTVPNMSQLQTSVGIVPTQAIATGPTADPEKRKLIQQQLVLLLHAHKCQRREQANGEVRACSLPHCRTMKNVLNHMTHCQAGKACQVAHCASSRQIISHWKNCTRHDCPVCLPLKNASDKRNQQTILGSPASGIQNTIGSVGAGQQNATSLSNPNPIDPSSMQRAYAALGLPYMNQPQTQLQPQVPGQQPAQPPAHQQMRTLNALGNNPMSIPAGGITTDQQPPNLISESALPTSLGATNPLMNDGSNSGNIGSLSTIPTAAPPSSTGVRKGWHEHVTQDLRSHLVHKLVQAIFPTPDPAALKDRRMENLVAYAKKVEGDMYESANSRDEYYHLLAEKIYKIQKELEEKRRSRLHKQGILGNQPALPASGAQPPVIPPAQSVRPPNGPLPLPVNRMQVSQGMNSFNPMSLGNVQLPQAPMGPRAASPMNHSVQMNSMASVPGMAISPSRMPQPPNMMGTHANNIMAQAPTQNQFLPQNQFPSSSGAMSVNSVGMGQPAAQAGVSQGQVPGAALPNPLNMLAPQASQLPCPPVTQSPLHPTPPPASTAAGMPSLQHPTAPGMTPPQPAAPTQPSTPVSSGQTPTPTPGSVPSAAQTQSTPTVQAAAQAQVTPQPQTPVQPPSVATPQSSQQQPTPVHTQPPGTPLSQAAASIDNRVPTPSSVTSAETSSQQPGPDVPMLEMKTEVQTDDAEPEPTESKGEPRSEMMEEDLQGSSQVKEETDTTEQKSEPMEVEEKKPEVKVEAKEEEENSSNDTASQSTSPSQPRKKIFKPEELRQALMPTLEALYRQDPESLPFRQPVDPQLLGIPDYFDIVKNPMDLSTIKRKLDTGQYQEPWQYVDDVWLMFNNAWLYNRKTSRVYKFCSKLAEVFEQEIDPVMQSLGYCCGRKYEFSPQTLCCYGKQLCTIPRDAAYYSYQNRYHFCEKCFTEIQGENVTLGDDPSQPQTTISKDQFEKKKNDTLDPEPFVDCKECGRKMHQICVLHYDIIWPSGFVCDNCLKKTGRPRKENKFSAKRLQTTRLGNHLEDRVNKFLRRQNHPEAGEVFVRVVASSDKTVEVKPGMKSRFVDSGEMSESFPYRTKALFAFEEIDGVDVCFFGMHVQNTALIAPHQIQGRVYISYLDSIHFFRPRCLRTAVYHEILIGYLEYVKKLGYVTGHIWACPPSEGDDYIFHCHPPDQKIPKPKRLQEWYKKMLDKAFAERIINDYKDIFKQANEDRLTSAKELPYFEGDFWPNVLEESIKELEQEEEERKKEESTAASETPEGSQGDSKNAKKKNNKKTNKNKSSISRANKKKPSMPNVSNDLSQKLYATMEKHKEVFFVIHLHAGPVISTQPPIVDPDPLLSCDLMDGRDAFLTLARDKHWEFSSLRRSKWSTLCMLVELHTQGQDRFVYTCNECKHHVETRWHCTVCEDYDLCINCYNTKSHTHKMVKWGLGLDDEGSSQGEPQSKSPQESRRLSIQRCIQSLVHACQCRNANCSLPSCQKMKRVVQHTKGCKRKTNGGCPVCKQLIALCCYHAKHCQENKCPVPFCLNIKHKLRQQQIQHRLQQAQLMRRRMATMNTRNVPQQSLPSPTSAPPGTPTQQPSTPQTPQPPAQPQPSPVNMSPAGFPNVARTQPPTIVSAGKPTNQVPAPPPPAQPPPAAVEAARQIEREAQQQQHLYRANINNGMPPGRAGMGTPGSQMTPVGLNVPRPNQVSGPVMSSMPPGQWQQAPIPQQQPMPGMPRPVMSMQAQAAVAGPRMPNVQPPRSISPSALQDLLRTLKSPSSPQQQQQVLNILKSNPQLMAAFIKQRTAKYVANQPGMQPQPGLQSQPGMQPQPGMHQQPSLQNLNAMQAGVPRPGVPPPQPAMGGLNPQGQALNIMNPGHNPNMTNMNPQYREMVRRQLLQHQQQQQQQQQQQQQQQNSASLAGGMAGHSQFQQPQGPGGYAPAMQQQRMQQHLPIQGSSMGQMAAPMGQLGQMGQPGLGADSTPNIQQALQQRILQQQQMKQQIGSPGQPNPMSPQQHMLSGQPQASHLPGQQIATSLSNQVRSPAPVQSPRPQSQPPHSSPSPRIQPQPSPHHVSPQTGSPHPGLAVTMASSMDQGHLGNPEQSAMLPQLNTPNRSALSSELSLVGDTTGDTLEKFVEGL
# UniProt P0A4E4, sequence (whole entry, looked up): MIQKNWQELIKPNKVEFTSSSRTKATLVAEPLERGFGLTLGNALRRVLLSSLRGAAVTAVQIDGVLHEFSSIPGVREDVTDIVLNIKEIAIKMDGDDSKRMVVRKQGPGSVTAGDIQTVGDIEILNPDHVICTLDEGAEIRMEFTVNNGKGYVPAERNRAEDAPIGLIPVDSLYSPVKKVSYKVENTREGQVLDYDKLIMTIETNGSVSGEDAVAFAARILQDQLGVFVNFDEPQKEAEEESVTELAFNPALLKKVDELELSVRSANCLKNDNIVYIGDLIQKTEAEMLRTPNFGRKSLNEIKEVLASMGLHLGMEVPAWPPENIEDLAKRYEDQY
# UniProt P31224, sequence (whole entry, unmodified, looked up): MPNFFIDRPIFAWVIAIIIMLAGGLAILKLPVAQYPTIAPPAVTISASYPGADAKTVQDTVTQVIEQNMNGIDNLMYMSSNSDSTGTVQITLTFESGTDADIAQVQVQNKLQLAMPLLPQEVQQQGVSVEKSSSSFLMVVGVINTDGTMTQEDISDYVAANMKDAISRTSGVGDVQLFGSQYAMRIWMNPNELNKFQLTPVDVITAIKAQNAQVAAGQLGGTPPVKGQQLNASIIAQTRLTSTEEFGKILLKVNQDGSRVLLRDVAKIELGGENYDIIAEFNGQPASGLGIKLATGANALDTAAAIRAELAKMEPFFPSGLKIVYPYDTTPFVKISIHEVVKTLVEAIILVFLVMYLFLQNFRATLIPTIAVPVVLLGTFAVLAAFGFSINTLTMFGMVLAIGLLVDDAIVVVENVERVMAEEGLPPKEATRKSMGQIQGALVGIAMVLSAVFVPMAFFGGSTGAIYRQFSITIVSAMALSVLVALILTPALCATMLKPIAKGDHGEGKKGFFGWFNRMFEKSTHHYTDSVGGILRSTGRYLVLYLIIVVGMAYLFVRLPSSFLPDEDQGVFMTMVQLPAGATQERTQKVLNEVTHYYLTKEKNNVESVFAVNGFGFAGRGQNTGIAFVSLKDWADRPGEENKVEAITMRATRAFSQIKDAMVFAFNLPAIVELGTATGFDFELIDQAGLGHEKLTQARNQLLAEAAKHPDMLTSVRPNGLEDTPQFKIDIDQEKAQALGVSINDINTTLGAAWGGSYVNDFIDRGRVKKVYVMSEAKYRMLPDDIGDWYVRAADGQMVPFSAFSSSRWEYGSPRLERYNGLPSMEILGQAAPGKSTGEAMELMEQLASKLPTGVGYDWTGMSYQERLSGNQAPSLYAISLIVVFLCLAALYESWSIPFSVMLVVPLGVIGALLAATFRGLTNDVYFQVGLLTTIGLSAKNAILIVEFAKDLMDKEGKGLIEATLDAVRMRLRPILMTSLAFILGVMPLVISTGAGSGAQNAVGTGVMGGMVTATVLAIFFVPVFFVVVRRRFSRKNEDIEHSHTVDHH
# UniProt P05362, sequence (whole entry, looked up): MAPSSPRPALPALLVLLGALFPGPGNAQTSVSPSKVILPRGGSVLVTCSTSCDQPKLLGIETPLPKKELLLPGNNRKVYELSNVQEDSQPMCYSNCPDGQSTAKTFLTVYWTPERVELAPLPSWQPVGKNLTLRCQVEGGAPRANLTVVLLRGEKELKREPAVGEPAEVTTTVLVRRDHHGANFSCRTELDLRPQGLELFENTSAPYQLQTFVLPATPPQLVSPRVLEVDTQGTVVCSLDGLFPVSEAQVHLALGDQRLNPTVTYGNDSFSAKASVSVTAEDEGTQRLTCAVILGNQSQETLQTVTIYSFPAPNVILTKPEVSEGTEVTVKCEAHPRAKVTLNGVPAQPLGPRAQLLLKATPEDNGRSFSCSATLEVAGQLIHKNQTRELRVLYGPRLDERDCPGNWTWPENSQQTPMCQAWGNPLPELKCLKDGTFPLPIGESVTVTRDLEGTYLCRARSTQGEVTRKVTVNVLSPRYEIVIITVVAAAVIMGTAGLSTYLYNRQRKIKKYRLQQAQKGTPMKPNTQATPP
# UniProt P23946, sequence (whole entry, looked up): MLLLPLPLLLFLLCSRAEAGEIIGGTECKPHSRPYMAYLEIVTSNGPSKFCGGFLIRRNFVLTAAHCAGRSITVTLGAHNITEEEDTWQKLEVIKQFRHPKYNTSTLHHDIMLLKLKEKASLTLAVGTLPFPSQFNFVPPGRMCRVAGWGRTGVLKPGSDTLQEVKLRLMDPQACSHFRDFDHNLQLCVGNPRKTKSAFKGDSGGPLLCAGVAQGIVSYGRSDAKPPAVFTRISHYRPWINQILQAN
Substance,target or system,test,system,setting,how to read,endpoint,value
DLG1 PDZ2 domain (Homo sapiens),E6 residues 80-151 (Human papillomavirus type 16),ITC,,"pH 6.50, 20 °C, single-site model",,Kd,6.6 ± 1 µM
"RmS-17, glycosylated (Rhipicephalus microplus)",F9 factor IXa (Bos taurus),"chromogenic substrate hydrolysis, inhibitor",,1 µM,,protease inhibition,< 20%
PLG kringle 2 C4G/E56D/L72Y (Homo sapiens),PAM 97-145 (Streptococcus pyogenes),ITC,,25 °C,,Kd,0.009 µM
traR R75A (Rhizobium radiobacter),"rpoA (Agrobacterium tumefaciens, UniProt P0A4E4)",Class II traG::lacZ reporter,E. coli DH5α,,"baseline: wild-type TraR, higher = stronger activation",reporter activation,38%
CAGCCAACCAATCACAGTCGACCCAATCTCTGCTGACCGGACC (dsDNA),HapB/HapC/HapE/HapX HapX 24-158,SPR,"double-stranded DNA, one strand shown",HapX on preformed CBC:DNA,,Kd,< 0.1 µM
B1 (acrA),"acrB C493S/C887S/S1043C (Escherichia coli, UniProt P31224)",SPR,,"pH 6.0, 150 mM NaCl, global fit, Langmuir or two-state",,Kd,0.09 µM
AGAAAGATAGGGATGGGATG (dsDNA),"ALBA3 1-107 (Plasmodium falciparum, UniProt Q8IJX8)",EMSA,"double-stranded DNA, one strand shown","apparent, Scatchard",,Kd,0.087 µM
melittin,,,POPC 100%:POPG 0% LUVs,25 °C,,−TΔS of membrane partitioning,-109 kJ/mol
B2,"ICAM1 28-480 (Homo sapiens, UniProt P05362)",SPR,,,,Kd,0.07 µM
gag peptide M6F/I8Y (SHIV),Mane-A1*082:01 (Macaca nemestrina),"competition with radiolabeled peptide, radioligand binding",,,"baseline: optimal residue, higher = weaker binding",relative binding,1
"{FITC}-GFID[pS]D[pT]DVEEE-NH2 (peptide; N-terminal FITC, pS5, pT7, C-terminal amide; FITC = O=C1OC2(c3ccc(O)cc3Oc3cc(O)ccc32)c2ccc(NC(=S)*)cc21; pS = N[C@@H](COP(=O)(O)O)C(=O)O; pT = C[C@@H](OP(=O)(O)O)[C@H](N)C(=O)O)","TOPBP1 641-746 S654A (Homo sapiens, UniProt Q92547)",fluorescence polarisation,peptide,"pH 7.5, NaCl 150 mM",,Kd,48 ± 6 µM
B3 (HBZ 1-77),"Crebbp 588-683 (Mus musculus, UniProt P45481)",pull-down,,with: pCREB 100 nM,"baseline: without pCREB, higher = more binding",relative binding,2 fold
"RmS-3, glycosylated (Rhipicephalus microplus)",F9 factor IXa (Bos taurus),"chromogenic substrate hydrolysis, inhibitor",,1 µM,,protease inhibition,< 20%
B4 (MC159L),"CASP8 tandem DED Y8A, TAMRA label","polymerisation inhibition, fluorescence polarization",,apparent,,Ki,0.0485 µM
AGTTTGACCAATCAGTAATAATTTATTGTCATCAAGT (dsDNA),HapB/HapC/HapE/HapX HapX 24-158,SPR,"double-stranded DNA, one strand shown",HapX on preformed CBC:DNA,,Kd,0.00171 µM
"RmS-6, glycosylated (Rhipicephalus microplus)","CMA1 (Homo sapiens, UniProt P23946)","chromogenic substrate hydrolysis, inhibitor",,1 µM,,protease inhibition,< 20%

# Excerpt of the above:
Substance,target or system,test,system,setting,how to read,endpoint,value
"RmS-3, glycosylated (Rhipicephalus microplus)",F9 factor IXa (Bos taurus),"chromogenic substrate hydrolysis, inhibitor",,1 µM,,protease inhibition,< 20%
B4 (MC159L),"CASP8 tandem DED Y8A, TAMRA label","polymerisation inhibition, fluorescence polarization",,apparent,,Ki,0.0485 µM
